Experimental data gathered from unrelated publications.
A part holds a random share of what one study measured.

Study 1
Target: Interferon regulatory factor 7, full length, phosphomimetic (IRF7, Homo sapiens, UniProt Q92985, residues 1-503, S471D/S472D/S475D/S476D/S477D/S483D/S484D/S487D)
Chain of UniProt Q92985 (whole entry, unmodified, looked up): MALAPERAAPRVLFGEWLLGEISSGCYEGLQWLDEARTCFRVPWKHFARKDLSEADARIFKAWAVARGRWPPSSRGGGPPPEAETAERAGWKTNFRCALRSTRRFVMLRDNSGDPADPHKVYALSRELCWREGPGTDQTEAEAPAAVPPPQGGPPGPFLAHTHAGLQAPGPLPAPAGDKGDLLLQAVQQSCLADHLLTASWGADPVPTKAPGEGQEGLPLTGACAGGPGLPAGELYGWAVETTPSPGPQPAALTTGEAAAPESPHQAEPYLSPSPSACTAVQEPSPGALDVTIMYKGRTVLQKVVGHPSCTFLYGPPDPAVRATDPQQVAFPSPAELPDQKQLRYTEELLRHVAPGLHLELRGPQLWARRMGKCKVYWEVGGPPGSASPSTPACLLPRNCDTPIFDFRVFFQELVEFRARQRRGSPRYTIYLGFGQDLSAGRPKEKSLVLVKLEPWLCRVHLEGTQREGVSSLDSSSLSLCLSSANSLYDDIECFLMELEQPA
Technique: protein-binding microarray
Molecule type: double-stranded DNA, one strand shown
Matrix: in vitro
Tested at: 2200 nM top
Notes: 60-bp whole probe
With: salmon DNA 0.4 mg/ml
Baseline: random background probes
Direction: higher = stronger binding
Measurement: fitted relative affinity
All sequences stand within: GCCTAGCAC … GTCTTGATTCGCTTGACGCTGCTG
Oligonucleotide = TTAGGTCTACTACTGCTTTAGTGCTAG; value = 0.298 z-score
Oligonucleotide = GACGGTATCGGACTGGAGACGTGCTAG; value = -0.266 z-score
Oligonucleotide = GTGGGTTTGAGTCTTCTCCTGTGCTAG; value = 0.575 z-score
Oligonucleotide = TTAGGTCTCCTTCTCCTTCAGTGCTAG; value = 1.05 z-score
Oligonucleotide = TTAGGACTGTTTTTCCTTTAGTGCTAG; value = 1.73 z-score
Oligonucleotide = GACGGTTTCGGGTATCGCGACGTGCTA; value = 5.6 z-score
Oligonucleotide = GACCGACTGGGTTTCGGGACGTGCTAG; value = 1.27 z-score
Oligonucleotide = TTAGCTCTCCTTTTCCTTTAGTGCTAG; value = 2.06 z-score
Oligonucleotide = GACGGACTGGGGATTCGGGACGTGCTA; value = -0.534 z-score
Oligonucleotide = TTAGGTATCTGGACTGGGTTAGTGCTA; value = -0.3 z-score
Oligonucleotide = TCAGAAATCGGTGATCAGACTGTGCTA; value = -0.388 z-score
Oligonucleotide = TTAGGTCTCCTTCTCCTTGAGTGCTAG; value = 0.967 z-score
Oligonucleotide = GCTTTTTTTTTTTTTTTTTTGTGCTAG; value = 1.76 z-score
Oligonucleotide = TTGGTTCTTATCCTTCCCCTCGTGCTA; value = 2.06 z-score
Oligonucleotide = GACGGTTTCGGGTATCGTGACGTGCTA; value = 5.84 z-score
Oligonucleotide = TTAGGTATCCTTCGCCTTTAGTGCTAG; value = 0.925 z-score
Oligonucleotide = TCATAACTTATTCTCTAACTGTGCTAG; value = 0.767 z-score

Study 2
Target: Fragile X messenger ribonucleoprotein 1, C-terminal low-complexity region (Fmr1, Mus musculus, UniProt P35922)
Technique: RNA Bind-n-Seq
Molecule type: RNA
Matrix: in vitro
Tested at: 200 nM
Notes: whole 134-nt RNA, ends assumed
With: 150 mM KCl
Baseline: input library
Direction: higher = stronger binding
Measurement: log2 enrichment
Oligonucleotide = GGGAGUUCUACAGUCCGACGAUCUAACUUUAGAGGAGGAUCUGAUGGAUAUGGCAGUGGACGUGGAUUUGGGGAUGGCUAAAAUGGGUAUGGAGGAGGACCUGGAGGUGGCAAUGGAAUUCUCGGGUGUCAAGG; value = 0.121
Oligonucleotide = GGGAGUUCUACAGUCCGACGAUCUGGGAGGUGGAUUUUGUUUAUUUUUUUAGCUCAUUUCCAGGGGUGGGAAUUUUUUUUUAAUAUGUGUCAUGAAUAAUGUUGUUUUUGAAAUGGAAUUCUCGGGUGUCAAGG; value = 0.128
Oligonucleotide = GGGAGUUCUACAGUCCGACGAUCGGAUCAAAGCAAGUUGGAGAAACAUCAGCACCUGGAGACACCUUAGAUGGCACACCUCGUACUCUCAAUACUGUCUUUGAUUUCCCACCAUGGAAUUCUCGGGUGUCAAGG; value = 0.429
Oligonucleotide = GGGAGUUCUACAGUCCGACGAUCUGGGAGGUGGAUUUUGUUUAUUUUUUUAGCUCAUUUCCAGGGGUGGGAAUUUUUUUUUAAUAUGUGUCAUGAAUAAAGUUUUUUUUGAAAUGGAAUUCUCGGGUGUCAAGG; value = 0.177
Oligonucleotide = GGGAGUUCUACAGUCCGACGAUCAAGUCCUGUGCUACACAUCGUAUGUACCGAAUCGGGAGGGUUUUUGGGAAAAAGGGAAAGUAUUAUGUUACGCCGUUCGGAUCUGCACUUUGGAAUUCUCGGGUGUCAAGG; value = 0.391
Oligonucleotide = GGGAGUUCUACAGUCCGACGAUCACCAUGCAGGUGGGCAUCUUUGGGAAGUGGGGCAAGGGGGGGAUAGGGAGGGGGGUAACACUUUGGGAACAGGUGGUCCCAGGUAGUUUCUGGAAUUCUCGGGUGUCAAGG; value = 0.593
Oligonucleotide = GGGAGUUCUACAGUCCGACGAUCUCAAGUCCUGUGCUACACAUCGUAUGUACCGAAUCGGCCCGGGCCCGGGCCCGGAAAGUAUUAUGUUACGCCGUUCGGAUCUGCACUUCCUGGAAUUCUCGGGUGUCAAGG; value = -1.15
Oligonucleotide = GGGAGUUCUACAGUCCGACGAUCACCAUGCAGGUGGGCAUCUUUGGGAAGUGGGGCAAGGGGGGGAUAGGGAGGGGGCUAACACUUUGGGAACAGGUGGUCCCAGGUCGUUUCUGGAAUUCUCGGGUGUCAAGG; value = 0.903
Oligonucleotide = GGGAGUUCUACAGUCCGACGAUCAAGUCCUGUGCUACACAUCGUAUGUACCGAAUCGGGGAAAAGGAAAAGGAAAAGGGAAAGUAUUAUGUUACGCCGUUCGGAUCUGCACUUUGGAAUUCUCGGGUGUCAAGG; value = -0.378
Oligonucleotide = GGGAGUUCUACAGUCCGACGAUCUGGGAGGUGGAUUUUGUUUAUUUUUUUAGAUCAUUUCCAGGGGUGGGAAUUUUUUUUUAAUAUGUGUCAUGAAUAAAGUUGUUUUUGAAAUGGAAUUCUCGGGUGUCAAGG; value = -0.0388

Study 3
Target: RNA binding protein fox-1 homolog 2, RRM domain, GST-SBP tag (RBFOX2, Homo sapiens, UniProt O43251-10, residues 100-194)
Technique: RNA Bind-n-Seq
Molecule type: RNA
Matrix: in vitro
Tested at: 365 nM
Notes: natural RNA segment, single round, ends assumed
Baseline: no-protein control
Direction: higher = stronger binding
Measurement: RBNS enrichment (R)
Target sequence (chain): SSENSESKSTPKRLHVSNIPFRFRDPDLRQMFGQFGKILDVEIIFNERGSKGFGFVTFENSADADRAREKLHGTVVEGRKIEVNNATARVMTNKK
Oligonucleotide = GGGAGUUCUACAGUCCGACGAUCACCAUUUGACACACUAUAGAUUCCAAACAUAACGUUGCACCAAAUAGAAAUGUAUAUUUUAUUAUGCAAUGCCUUAGUCAUAAACUGGGCUCAAACAAUUCUCAGCCUAAUGGAAUUCUCGGGUGCCAA; value = 0.187
Oligonucleotide = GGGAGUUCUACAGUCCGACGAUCUCUGUUAAAAAGAGAAAUACACUCAGAAGACAUGGACUUGAGAAUCAGAAAGAAACUAAGAAAAAGGAUAAAAAUAUCCAAAGGAGUUACAUUUUGAGGAAAAAGAACAAUGGAAUUCUCGGGUGCCAA; value = 0.261
Oligonucleotide = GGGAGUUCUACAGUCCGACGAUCGAGAGCUAUUGGAGUGAGAGCUGAGGUGUCCUUAACCACUUUUUCUCUCCUAGAUUCAUUUUCAUUAUUUAUGCUAGGAUUUUCUUAUGGUUGACAUUUGAUGACAGGAAUGGAAUUCUCGGGUGCCAA; value = 0.359
Oligonucleotide = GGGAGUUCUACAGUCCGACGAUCGAGUCUAGCCUGGGAGCCAGGAUACUGGGGUCCUUUUCCCACUCUUCCACUGACUUGCUGUGUGACCUUAGGAAGUCUCUGCCCCUCUCUCAGCCUCAGUGUCCCGAGGGUGGAAUUCUCGGGUGCCAA; value = 0.516
Oligonucleotide = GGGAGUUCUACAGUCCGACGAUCGUGAAGCAGGCUCCCCUGGGCCUCUGAGGGCCAGCAGUCCCAACCAUUUGCCUCUUCGUUUUGACCAAGCACAAAAGAGAUAUUCCCUAGAAGUGUCACACGGAGGCUUCUGGAAUUCUCGGGUGCCAA; value = 0.781
Oligonucleotide = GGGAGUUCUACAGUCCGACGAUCCUUUCCUUUUUAUAAAACAACAAAUGGUUCAACUCUGUCUGCAAAUUAACAGCUGAACACCUGCAACUGCAAAUGUUUUUUGAUCCGACGUACUGAAAUAGGAAGUCAUGUGGAAUUCUCGGGUGCCAA; value = 0.39
Oligonucleotide = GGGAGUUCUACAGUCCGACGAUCAAUAUCAGCGCACACACAUAGCUGCAUGUUCUGCUCGUGUAGUUUAAAAAAAAAAAGACAAAACAGUGACAUGAAAUAAAAAAUAAAAAUUGAAAAGGGAUGUAUUUCUAUGGAAUUCUCGGGUGCCAA; value = 2.05
Oligonucleotide = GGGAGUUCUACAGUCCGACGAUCGUAGCCUAAAAGACAAUUUUCCUUGGAACACAUAAGAACUGUGCAGUAGCCGUUUGUGGUUUAAAGCAAACAUGCAAGAUGAACCUGAGGGAUGAUAGAAUACAAAGAAUUGGAAUUCUCGGGUGCCAA; value = 0.291
Oligonucleotide = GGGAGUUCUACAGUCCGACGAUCAUCUUAGAUUGCCACUGCUUUCAUUGAAGACCCUCAAUGCCAAGAAACGUGUCCCUGGCCCAUAUUAAUCCCUCGUGUGUCCAUAAUUAGGGUCCACGCCCAUGUACCUGUGGAAUUCUCGGGUGCCAA; value = 0.25
Oligonucleotide = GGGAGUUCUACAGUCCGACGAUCGAACCUAGUGAAUGGUAUGCUUGGGUGUUUUCCAUUGAGAGUGGAUGGACCUCUUUAUAAAGUUGGUUGCUGCAAAAUCCAGUUCUUCCAAAAGCCACUUUAUUUAGGGUUGGAAUUCUCGGGUGCCAA; value = 1.32
Oligonucleotide = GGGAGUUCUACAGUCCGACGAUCCACCUCGGUGUUUCUGUACCAGAGCCUGCGCUGCCCACCGUUGGAGCCCCUCGGAGGGGAGCAACCCGGUGCCUGCUGCUUCACCACUGCCGGCCUCAGGACCCUCCCUGUGGAAUUCUCGGGUGCCAA; value = 0.306
Oligonucleotide = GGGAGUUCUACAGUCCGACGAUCACAUUUUUAUUUUUUGUCUCAGAGGGGAUAAUUGGGAGUGUAUAGUGGAGCAGGGUGGGGCGGGGCUACAGGUUCUGUGUGCACCUGUCACCUCCACUAACGCUGUCUCAUGGAAUUCUCGGGUGCCAA; value = 0.497

Study 4
Target: Histone acetyltransferase KAT6A, both winged helices, GST fusion (KAT6A, Homo sapiens, UniProt Q92794, residues 1-181)
Technique: protein binding microarray
Molecule type: double-stranded DNA, one strand shown
Matrix: in vitro
Tested at: not given
Notes: 8-mer, flanks averaged, mean of 2 arrays, mostly near background
Baseline: not given
Direction: higher = stronger binding
Measurement: E-score
Construct (chain): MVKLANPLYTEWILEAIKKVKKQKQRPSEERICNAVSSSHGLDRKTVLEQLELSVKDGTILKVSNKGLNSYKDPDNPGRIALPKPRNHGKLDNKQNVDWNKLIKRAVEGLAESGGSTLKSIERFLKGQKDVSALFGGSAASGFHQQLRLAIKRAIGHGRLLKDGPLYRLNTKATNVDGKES
Oligonucleotide = CATTACAA; value = -0.056
Oligonucleotide = AGTCGTCC; value = -0.0713
Oligonucleotide = ACGGTGGC; value = 4e-05
Oligonucleotide = CGCGTAGC; value = 0.284
Oligonucleotide = ACGATTCG; value = 0.183
Oligonucleotide = GGTCCGAC; value = 0.109
Oligonucleotide = ACGTTTAA; value = -0.131
Oligonucleotide = CTTTGATA; value = -0.0717
Oligonucleotide = GCCACGTA; value = -0.0581
Oligonucleotide = ACTTGCCA; value = -0.196
Oligonucleotide = AGTGCCTC; value = -0.0791
Oligonucleotide = GGTATGCA; value = -0.122
Oligonucleotide = CTCCCGCA; value = 0.29
Oligonucleotide = GTTGCAAC; value = 0.029
Oligonucleotide = ATTAGCCG; value = 0.229
Oligonucleotide = CGAGGCAA; value = -0.0887
Oligonucleotide = TACTGGGA; value = 0.00279
Oligonucleotide = CGAATATC; value = -0.0406
Oligonucleotide = GTACCACA; value = -0.0685
Oligonucleotide = GGGATAAC; value = 0.0191
Oligonucleotide = GGCACTAA; value = -0.0479
Oligonucleotide = CACTCGGG; value = 0.0608
Oligonucleotide = CGAAACCC; value = 0.183

Repeated from above (study 3):
Oligonucleotide = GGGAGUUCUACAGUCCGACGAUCAUCUUAGAUUGCCACUGCUUUCAUUGAAGACCCUCAAUGCCAAGAAACGUGUCCCUGGCCCAUAUUAAUCCCUCGUGUGUCCAUAAUUAGGGUCCACGCCCAUGUACCUGUGGAAUUCUCGGGUGCCAA; value = 0.25
Oligonucleotide = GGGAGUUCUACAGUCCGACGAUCGUAGCCUAAAAGACAAUUUUCCUUGGAACACAUAAGAACUGUGCAGUAGCCGUUUGUGGUUUAAAGCAAACAUGCAAGAUGAACCUGAGGGAUGAUAGAAUACAAAGAAUUGGAAUUCUCGGGUGCCAA; value = 0.291
Oligonucleotide = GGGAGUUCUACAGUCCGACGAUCUCUGUUAAAAAGAGAAAUACACUCAGAAGACAUGGACUUGAGAAUCAGAAAGAAACUAAGAAAAAGGAUAAAAAUAUCCAAAGGAGUUACAUUUUGAGGAAAAAGAACAAUGGAAUUCUCGGGUGCCAA; value = 0.261
Oligonucleotide = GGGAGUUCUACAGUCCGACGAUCACCAUUUGACACACUAUAGAUUCCAAACAUAACGUUGCACCAAAUAGAAAUGUAUAUUUUAUUAUGCAAUGCCUUAGUCAUAAACUGGGCUCAAACAAUUCUCAGCCUAAUGGAAUUCUCGGGUGCCAA; value = 0.187
